Results from different studies.
Every numbered part comes from another study and shows a few of its results, in no order. Changes are numbered by the printed parent chain.

Study 1 — technique: protein binding microarray; molecule type: double-stranded DNA, one strand shown; matrix: in vitro; concentration: not given; reference: not given; reading: higher = stronger binding
Target: Histone acetyltransferase KAT6A, both winged helices, GST fusion (KAT6A, Homo sapiens, UniProt Q92794, residues 1-181)
Notes: 8-mer, flanks averaged, mean of 2 arrays, mostly near background
Construct (chain): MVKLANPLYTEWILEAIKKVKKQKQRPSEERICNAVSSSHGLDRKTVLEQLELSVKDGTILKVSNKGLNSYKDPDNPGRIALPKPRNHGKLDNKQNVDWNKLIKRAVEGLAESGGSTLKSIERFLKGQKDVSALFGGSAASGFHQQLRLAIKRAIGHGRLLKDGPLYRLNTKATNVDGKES
`AGATAGTG` gave an E-score of -0.0824.
With `GTAATGGA` the E-score was -0.0503.
The E-score of `ACGCGACA` is reported as 0.258.
`CGTCAATC` gave an E-score of 0.143.
With `AAAGCCGA` the E-score was 0.0555.
`ACGGCTCT` gave an E-score of 0.217.
For `GCTCACAA`, the E-score was 0.0151.
For `TACCCCGA`, the E-score was 0.159.
`ATTATAGC` gave an E-score of -0.12.
With `CTAAGGTA` the E-score was -0.0817.
For `CTCATGGA`, the E-score was -0.0924.
`CGCCAGAG` has an E-score of 0.00359.
`ACGCTGAT` has an E-score of 0.24.
With `AGAGTACT` the E-score was -0.0752.
The E-score of `CGGGGCTA` is reported as -0.0162.
`CACATAGC` has an E-score of 0.0595.
For `CGCCGAAG`, the E-score was 0.225.
`GTTCGAAA` has an E-score of 0.169.
The E-score of `GTCGCAAC` is reported as 0.0864.
`TCATTGCA` has an E-score of -0.207.
With `GCGCATCC` the E-score was 0.283.
`CGTTCCTC` has an E-score of 0.0611.
With `CCCGGCAG` the E-score was 0.105.
For `CTGATCAC`, the E-score was -0.0895.
`CCTCCACG` gave an E-score of 0.0154.

Study 2 — target: CCND3, cyclin fold, Cln2 fusion (human); technique: yeast growth competition, sequencing; matrix: yeast; notes: weak parent motif; reference: not given; reading: higher = stronger binding
Starting sequence: E2F1 docking peptide (human); PPVKRRLDFETDH
Under “normalised enrichment score”, `PPAKRRLDFETDH [V3A]` is recorded as 0.468.
For `PPVPRRLDFETDH [K4P]`, “normalised enrichment score” read 0.026.
Under “normalised enrichment score”, `PPVKRRLDFFTDH [E10F]` is recorded as 0.501.
For `PPVGRRLDFETDH [K4G]`, “normalised enrichment score” read 0.497.
For `PPVVRRLDFETDH [K4V]`, “normalised enrichment score” read 0.373.
For `PPVKRRLRFETDH [D8R]`, “normalised enrichment score” read -0.276.
Under “normalised enrichment score”, `PPVKFRLDFETDH [R5F]` is recorded as -0.0709.
Under “normalised enrichment score”, `PPVKRRLDFEHDH [T11H]` is recorded as 0.385.
`PPVKRRLDFENDH [T11N]` — result for “normalised enrichment score”: 0.879.
Under “normalised enrichment score”, `PPVKRRRDFETDH [L7R]` is recorded as 0.119.
`PPVKRRVDFETDH [L7V]`: “normalised enrichment score” 0.108.
`PPVKRELDFETDH [R6E]` — result for “normalised enrichment score”: 0.481.
Under “normalised enrichment score”, `PPVKRRLCFETDH [D8C]` is recorded as 0.58.

Study 3 — technique: competition protein-binding microarray; molecule type: double-stranded DNA, one strand shown; matrix: in vitro; concentration: 2 µM; together with: Pho4 competitor, 0.05 µM; reading: higher = stronger binding
Target: Centromere-binding protein 1, full length, His-tagged (CBF1, Saccharomyces cerevisiae, UniProt P17106, residues 1-351)
UniProt P17106, sequence (whole entry, looked up): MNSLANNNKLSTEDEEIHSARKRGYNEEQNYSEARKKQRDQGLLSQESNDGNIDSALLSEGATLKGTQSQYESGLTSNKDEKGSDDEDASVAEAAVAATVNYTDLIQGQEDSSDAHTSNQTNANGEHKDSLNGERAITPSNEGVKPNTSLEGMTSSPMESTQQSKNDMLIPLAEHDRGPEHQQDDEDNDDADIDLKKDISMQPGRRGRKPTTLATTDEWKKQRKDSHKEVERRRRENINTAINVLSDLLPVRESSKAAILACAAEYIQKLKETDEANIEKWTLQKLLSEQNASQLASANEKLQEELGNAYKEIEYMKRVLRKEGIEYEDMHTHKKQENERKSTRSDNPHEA
Notes: whole 60-bp probe, lowest competitor level
The fluorescence intensity of `TTGGCTACGTCCCTACACGTGTTTTGCGGTCTCGCTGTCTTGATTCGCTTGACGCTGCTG` is reported as 724 a.u.
`GGTGCCCAGAGTAAAGGCGTGATGGTGCAAAGACTCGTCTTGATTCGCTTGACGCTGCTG` gave a fluorescence intensity of 101 a.u.
`TCCGCGCCGTATGTGTGTGTGACAGTGGAGTTTGCAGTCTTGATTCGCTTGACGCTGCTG` gave a fluorescence intensity of 92.5 a.u.
The fluorescence intensity of `ATAATCTTCTCAGGACACGTAATCTTCTGATCCAGAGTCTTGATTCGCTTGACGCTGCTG` is reported as 95.9 a.u.
The fluorescence intensity of `CTTCTGTAAATTTGTGCTGTGGGTGGACGCGCCCCGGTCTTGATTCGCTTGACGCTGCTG` is reported as 89.8 a.u.
The fluorescence intensity of `TAAGGCCTTTATTGCGTCGTGCTTTCTCCTCTCATAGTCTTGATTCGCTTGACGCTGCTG` is reported as 67.4 a.u.
`AATTGAGAGGGTTTTCACGGGTAGTGGGCACAATGTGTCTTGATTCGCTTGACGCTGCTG` has a fluorescence intensity of 71.2 a.u.
The fluorescence intensity of `ACCCTTACCGGCCTTGACGTGGGTAACAGCGGTAGCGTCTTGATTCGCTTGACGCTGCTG` is reported as 49.8 a.u.
The fluorescence intensity of `ATGAAGGTTGGCGACCACGTGGTCGTTGATGCTGCCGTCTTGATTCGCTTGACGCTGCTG` is reported as 2090 a.u.
`ATTTCCTCCCGTCTCTGCGTGCCAGACGGGATCAGCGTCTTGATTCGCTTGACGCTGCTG` has a fluorescence intensity of 62.3 a.u.
`TATCTCGCTCACCATCACGGCCGCCGCCATTCCCGAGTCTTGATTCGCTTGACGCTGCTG` has a fluorescence intensity of 50.5 a.u.
With `TGTCTCCACAGTACCAACGTGCGATATCTGCTTCTCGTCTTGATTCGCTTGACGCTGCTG` the fluorescence intensity was 89.7 a.u.
With `CACCGGATATTGAATCACATGGGCTTTCAGATTTCAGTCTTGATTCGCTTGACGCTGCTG` the fluorescence intensity was 835 a.u.
`CTTCTGTAAATTTGGACGGTGGGTGGACGCGCCCCGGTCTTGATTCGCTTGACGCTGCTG` has a fluorescence intensity of 65.1 a.u.
For `CTTTGTCGTCCCTGGCACGGCTGTCTTGTGCTCAGTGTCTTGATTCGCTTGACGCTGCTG`, the fluorescence intensity was 69.7 a.u.
With `AAATTACTAAGTTGCTAAGTGGGTGACGCCGTATGAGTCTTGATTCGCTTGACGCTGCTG` the fluorescence intensity was 76.8 a.u.
The fluorescence intensity of `CGGGAGTGTTTTTTTTCCGTGCGGATTTTCTTAGCTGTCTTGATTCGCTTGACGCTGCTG` is reported as 76.2 a.u.
With `AGTATGCCCATCAGCCTCGTGACGGATGAGGATCTCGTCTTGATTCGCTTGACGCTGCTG` the fluorescence intensity was 262 a.u.

Study 4 — technique: RNA Bind-n-Seq; molecule type: RNA; matrix: in vitro; concentration: 200 nM; notes: whole 134-nt RNA, ends assumed; together with: 150 mM LiCl; reference: input library; reading: higher = stronger binding; library: 7-deaza-guanosine replaces G
Target: Fragile X messenger ribonucleoprotein 1, C-terminal low-complexity region (Fmr1, Mus musculus, UniProt P35922)
`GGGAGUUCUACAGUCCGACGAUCCCUCUGGACGAGACCAGCCAGAUGAGCGACCUCCCGGUGAAGGUGAUCCACGUGGAGAGUGGGAAGAUCCUCACAGGCACAGAUGCCCCCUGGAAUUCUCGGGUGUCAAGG` has a log2 enrichment of 1.01.
`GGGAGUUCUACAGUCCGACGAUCGUCCUGUGCUACACAUCGUAUGUACCGAAUCGGGGUUUUUUUGGGGAGGGGAAAGGGGAAAGUAUUAUGUUACGCCGUUCGGAUCUGCACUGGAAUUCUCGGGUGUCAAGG` has a log2 enrichment of 0.344.
The log2 enrichment of `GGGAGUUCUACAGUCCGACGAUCGCAGGAAGUAAAAACAAAUGGAAAUGCUUCGGAUAGUGGCAGGGGUGGGGGUUGCUAAGGAAAGGGUGGGAUGGGAGUGGGUGAAGAGUUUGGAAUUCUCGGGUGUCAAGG` is reported as 1.42.
For `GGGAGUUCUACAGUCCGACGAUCAGUCCUGUGCUACACAUCGUAUGUACCGAAUCGGGCCCCCGGCCCCCGGCCCCCGGGAAAGUAUUAUGUUACGCCGUUCGGAUCUGCACUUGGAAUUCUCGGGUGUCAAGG`, the log2 enrichment was -0.725.
`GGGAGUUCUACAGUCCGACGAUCAGUCCUGUGCUACACAUCGUAUGUACCGAAUCGGGGUUUGGGGAAAAAGGGGAGGGGAAAGUAUUAUGUUACGCCGUUCGGAUCUGCACUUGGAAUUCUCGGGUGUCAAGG` has a log2 enrichment of -0.244.
`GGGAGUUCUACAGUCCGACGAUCAGUCCUGUGCUACACAUCGUAUGUACCGAAUCGGGGUUUGGGGUUUGGGGUUUGGGGAAAGUAUUAUGUUACGCCGUUCGGAUCUGCACUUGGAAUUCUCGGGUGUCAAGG` has a log2 enrichment of -1.32.
`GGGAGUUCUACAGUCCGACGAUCAGUCCUGUGCUACACAUCGUAUGUACCGAAUCGGGGUUUGGGGUUUUUGGGGAGGGGAAAGUAUUAUGUUACGCCGUUCGGAUCUGCACUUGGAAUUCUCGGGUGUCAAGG` has a log2 enrichment of -0.235.
With `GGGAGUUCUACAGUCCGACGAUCACCAUGCAGGUGGGCAUCUUUGGGAAGUGGGGCAAGGGGGGGAUAGGGAGGGGGGUAACACUUUGGCAACAGGUGGUCCCAGGUCGUUUCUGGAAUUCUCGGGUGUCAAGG` the log2 enrichment was 1.24.
`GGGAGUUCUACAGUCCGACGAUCGCAGGAAGUAAAUACAAAUGGAAAUGCUUCGGAUAGUGGCAGGGGUGGGGGUUGCUAAGGAAAGGGUGGGAUGGGAGUGGGUAAAGAGUUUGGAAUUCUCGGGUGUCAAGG` gave a log2 enrichment of 1.03.
For `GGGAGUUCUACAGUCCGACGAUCGCGGACCGAGAAAGUCGUUACGAGGAAGAAGAAGAACAAAGUCGAAGUAUGAGCCGGAAGAGGAAGGCAUCUGUGCACAGUUCGGGCCGUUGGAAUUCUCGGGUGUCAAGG`, the log2 enrichment was 1.79.
`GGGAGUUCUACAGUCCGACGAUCGCAGGAAGUAAAAACAAAUGGAAAUGCUUCGGAUAGUGGCAGGGGUGGGGGUUGCUAUGGAAAGGGUGGGAUGGGAGUGGGUAAAGAGUUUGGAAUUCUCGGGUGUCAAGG` has a log2 enrichment of 1.3.

Study 5 — technique: DHFR PCA, deep sequencing; matrix: yeast; together with: (+)-ABA 0.11 µM; reference: wild-type fitted maximum; reading: higher = stronger binding
Target: ABI1, truncated, D143A, DHFR fusion (Arabidopsis thaliana)
Notes: methotrexate growth selection, single substitutions
Starting sequence: PYL1, truncated, DHFR fusion (Arabidopsis thaliana); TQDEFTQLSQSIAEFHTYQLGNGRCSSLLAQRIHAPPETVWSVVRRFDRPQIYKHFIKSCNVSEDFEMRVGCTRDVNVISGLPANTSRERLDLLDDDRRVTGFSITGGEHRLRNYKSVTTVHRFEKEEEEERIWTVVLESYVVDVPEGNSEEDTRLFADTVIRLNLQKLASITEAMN
`K126H`: “relative binding score” 44.6%.
For `L20Y`, “relative binding score” read 23.2%.
For `E151V`, “relative binding score” read 49.1%.
`N149Y`: “relative binding score” 25.5%.
`G21W` — result for “relative binding score”: 6.96%.
Under “relative binding score”, `K168C` is recorded as 10.7%.
Under “relative binding score”, `L112R` is recorded as -5%.
`R163F` — result for “relative binding score”: -19.1%.
Under “relative binding score”, `A84N` is recorded as 35.5%.
For `T73C`, “relative binding score” read 24.1%.
`L91A` — result for “relative binding score”: -0.118%.
Under “relative binding score”, `T101D` is recorded as -9.09%.
For `E67I`, “relative binding score” read 26.4%.
`R69C`: “relative binding score” 18.9%.
Under “relative binding score”, `P37N` is recorded as -3.16%.
